Measured values gathered from unrelated publications.
Numbered parts are unrelated; each lists some results of a single study. Several values in a cell are separate wells, animals, samples, runs or records. Values after ≈ are worked out from the molar mass of the structure shown.
UniProt Q96SW2, sequence (whole entry, looked up): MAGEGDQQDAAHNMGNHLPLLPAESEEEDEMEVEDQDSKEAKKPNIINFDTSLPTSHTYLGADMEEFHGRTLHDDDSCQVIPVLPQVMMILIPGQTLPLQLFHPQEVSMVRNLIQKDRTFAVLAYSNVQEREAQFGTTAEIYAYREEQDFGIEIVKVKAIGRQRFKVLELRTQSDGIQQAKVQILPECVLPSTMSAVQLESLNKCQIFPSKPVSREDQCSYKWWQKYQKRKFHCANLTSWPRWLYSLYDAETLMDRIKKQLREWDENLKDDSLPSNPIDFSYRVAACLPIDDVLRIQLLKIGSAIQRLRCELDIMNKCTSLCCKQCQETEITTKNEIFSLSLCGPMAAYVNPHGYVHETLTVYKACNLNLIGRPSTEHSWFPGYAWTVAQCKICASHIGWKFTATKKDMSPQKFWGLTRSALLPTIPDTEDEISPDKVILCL
UniProt P15170, sequence (whole entry, looked up): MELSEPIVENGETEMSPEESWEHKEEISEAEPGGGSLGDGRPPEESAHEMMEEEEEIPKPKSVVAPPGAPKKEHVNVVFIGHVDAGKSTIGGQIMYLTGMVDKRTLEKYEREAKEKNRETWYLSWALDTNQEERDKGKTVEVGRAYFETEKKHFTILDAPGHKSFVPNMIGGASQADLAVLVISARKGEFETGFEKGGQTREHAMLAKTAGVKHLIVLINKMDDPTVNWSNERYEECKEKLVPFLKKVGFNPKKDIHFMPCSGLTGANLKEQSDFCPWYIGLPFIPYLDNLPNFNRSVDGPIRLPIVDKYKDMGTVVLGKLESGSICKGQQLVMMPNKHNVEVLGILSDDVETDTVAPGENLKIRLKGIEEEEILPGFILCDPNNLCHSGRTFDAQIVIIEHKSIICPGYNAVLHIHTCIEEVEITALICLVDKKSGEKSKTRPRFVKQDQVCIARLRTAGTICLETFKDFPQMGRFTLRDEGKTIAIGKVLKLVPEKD
UniProt Q9UKT9, sequence (whole entry, looked up): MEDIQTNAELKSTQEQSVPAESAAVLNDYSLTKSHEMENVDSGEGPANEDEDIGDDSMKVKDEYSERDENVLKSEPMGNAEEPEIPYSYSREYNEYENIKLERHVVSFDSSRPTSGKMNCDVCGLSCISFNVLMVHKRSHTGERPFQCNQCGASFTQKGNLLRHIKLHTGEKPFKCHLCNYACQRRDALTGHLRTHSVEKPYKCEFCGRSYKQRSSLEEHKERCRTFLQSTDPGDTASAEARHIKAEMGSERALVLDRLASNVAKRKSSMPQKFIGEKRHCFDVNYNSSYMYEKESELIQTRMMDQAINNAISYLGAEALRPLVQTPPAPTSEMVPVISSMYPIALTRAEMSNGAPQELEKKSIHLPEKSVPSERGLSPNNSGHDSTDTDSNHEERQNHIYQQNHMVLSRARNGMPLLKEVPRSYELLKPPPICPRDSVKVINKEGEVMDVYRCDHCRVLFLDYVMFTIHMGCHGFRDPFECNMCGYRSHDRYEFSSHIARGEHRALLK
UniProt Q99640, sequence (whole entry, looked up): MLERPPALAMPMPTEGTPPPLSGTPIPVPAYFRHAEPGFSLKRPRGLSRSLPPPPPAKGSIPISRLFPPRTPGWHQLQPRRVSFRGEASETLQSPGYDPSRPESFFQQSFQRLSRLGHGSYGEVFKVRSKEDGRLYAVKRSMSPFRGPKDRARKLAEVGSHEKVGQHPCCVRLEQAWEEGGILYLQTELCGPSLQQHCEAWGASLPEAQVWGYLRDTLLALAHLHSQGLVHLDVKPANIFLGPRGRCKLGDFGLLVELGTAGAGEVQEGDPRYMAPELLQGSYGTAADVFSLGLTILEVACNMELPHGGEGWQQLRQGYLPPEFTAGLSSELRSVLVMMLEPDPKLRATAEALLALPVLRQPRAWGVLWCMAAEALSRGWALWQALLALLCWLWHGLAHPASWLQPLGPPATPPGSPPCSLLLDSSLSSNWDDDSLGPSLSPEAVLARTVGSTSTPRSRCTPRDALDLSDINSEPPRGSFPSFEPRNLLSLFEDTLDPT

Study 1
SMILES: CCCCC[C@@H](O)CC(=O)N[C@H]1COC(=O)[C@H](CO)NC(=O)[C@H](Cc2ccccc2)NC(=O)[C@@H](Cc2c[nH]c3ccccc23)NC(=O)[C@@H](C(C)O)NC(=O)[C@H](CC(N)=O)NC(=O)[C@@H](C(C)C)NC(=O)[C@H](CC(C)C)NC(=O)[C@@H](Cc2ccc(O)cc2)N(C)C(=O)CNC(=O)[C@H](CO)NC(=O)[C@@H](CC(N)=O)NC1=O (some centres unmarked)
Organism: Staphylococcus aureus
Strain: USA300
Endpoint: MIC
with: menaquinone 4 µg/mL: 64 µg/mL (≈ 42.3 µM)
with: menaquinone 8 µg/mL: > 64 µg/mL
with: ubiquinone 64 µg/mL: 8 µg/mL (≈ 5.29 µM)
with: menaquinone 32 µg/mL: > 64 µg/mL
with: ubiquinone 16 µg/mL: 4 µg/mL (≈ 2.64 µM)

Study 2
Structure (SMILES): Cn1cc(-c2cccc(CN3CCC4(CC3)COc3c4ccc4c3CN([C@@H]3CCC(=O)NC3=O)C4=O)c2)cn1
Mode: degrader
Technique: HiBiT
Cell line: HEK293
Endpoint: remaining protein
CSNK1A1: Casein kinase I isoform alpha (CSNK1A1, Homo sapiens, UniProt P48729)
UniProt P48729, sequence (whole entry, looked up): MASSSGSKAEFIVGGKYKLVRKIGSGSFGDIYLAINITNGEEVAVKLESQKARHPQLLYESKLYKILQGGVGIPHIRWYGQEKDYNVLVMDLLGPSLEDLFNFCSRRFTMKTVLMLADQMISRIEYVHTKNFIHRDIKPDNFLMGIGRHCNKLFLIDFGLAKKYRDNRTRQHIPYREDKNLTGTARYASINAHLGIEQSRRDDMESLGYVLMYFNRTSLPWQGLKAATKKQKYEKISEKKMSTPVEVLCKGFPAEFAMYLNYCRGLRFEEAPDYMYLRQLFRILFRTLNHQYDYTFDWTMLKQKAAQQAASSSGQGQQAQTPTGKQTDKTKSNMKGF
DNA-binding protein Ikaros: DNA-binding protein Ikaros (Homo sapiens, UniProt Q13422)
UniProt Q13422, sequence (whole entry, looked up): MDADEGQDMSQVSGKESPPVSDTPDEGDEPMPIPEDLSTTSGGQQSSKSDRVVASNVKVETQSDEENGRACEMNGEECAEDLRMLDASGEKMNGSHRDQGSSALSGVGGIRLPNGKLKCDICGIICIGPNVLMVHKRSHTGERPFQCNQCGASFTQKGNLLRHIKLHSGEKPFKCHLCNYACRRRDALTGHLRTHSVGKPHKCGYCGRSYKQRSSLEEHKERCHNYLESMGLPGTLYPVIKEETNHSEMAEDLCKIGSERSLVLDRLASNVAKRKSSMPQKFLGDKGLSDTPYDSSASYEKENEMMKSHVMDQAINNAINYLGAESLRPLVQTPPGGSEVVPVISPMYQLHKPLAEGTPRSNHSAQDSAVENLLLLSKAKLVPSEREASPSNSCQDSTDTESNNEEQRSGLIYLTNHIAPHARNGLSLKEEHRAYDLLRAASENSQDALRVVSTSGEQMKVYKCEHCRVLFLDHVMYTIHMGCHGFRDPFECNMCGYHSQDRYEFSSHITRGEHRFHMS
SALL4: Sal-like protein 4 (SALL4, Homo sapiens, UniProt Q9UJQ4)
UniProt Q9UJQ4, sequence (whole entry, looked up): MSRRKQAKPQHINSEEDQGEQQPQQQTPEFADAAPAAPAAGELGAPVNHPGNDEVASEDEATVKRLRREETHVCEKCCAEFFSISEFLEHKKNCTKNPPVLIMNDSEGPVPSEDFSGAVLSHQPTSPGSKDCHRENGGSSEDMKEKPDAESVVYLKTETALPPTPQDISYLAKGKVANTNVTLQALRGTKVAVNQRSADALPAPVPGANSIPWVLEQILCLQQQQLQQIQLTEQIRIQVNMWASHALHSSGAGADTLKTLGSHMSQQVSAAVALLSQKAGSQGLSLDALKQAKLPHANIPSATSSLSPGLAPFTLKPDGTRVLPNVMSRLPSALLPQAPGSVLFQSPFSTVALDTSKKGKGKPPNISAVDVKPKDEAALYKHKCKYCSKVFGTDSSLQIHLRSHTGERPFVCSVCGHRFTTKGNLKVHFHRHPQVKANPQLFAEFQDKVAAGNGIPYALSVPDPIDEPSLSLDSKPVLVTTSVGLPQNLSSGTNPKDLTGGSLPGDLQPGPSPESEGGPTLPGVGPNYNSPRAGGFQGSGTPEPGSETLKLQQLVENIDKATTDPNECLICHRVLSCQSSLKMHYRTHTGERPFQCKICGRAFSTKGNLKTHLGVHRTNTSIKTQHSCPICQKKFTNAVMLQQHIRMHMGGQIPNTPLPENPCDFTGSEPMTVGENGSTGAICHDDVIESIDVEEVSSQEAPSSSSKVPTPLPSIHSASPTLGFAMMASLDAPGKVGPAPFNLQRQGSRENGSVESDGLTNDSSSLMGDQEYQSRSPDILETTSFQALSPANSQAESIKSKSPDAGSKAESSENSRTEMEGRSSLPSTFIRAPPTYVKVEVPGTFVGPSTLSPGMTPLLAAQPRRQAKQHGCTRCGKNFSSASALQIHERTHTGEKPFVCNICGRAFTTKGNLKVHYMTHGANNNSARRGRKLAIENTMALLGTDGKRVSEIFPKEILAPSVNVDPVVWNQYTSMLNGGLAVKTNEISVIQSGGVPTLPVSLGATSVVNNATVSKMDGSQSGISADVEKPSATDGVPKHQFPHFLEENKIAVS
Eukaryotic peptide chain release factor GTP-binding subunit ERF3A (GSPT1, Homo sapiens, UniProt P15170); 123.5 nM: 105% and 94.7%
CSNK1A1; 1111.11 nM: 95.8% and 94.5%
DNA-binding protein Ikaros; 1.524 nM: 105% and 102%
DNA-binding protein Ikaros; 41.15 nM: 99.2% and 99.9%
CSNK1A1; 13.72 nM: 98.1% and 93.9%
DNA-binding protein Ikaros; 3333.33 nM: 98% and 100%
SALL4; 1.524 nM: 93.1% and 99.5%
SALL4; 3333.33 nM: 82.6% and 73.4%
CSNK1A1; 41.15 nM: 99.3% and 101%
Zinc finger protein Aiolos (Homo sapiens, UniProt Q9UKT9); 1.524 nM: 102% and 101%
SALL4; 10000 nM: 82.9% and 78.7%

Study 3
Compound: CCCNC(=O)COc1ccc(Br)c(C)c1
Target: Sodium-dependent neutral amino acid transporter B(0)AT1 (SLC6A19, Homo sapiens, UniProt Q695T7)
UniProt Q695T7, sequence (whole entry, looked up): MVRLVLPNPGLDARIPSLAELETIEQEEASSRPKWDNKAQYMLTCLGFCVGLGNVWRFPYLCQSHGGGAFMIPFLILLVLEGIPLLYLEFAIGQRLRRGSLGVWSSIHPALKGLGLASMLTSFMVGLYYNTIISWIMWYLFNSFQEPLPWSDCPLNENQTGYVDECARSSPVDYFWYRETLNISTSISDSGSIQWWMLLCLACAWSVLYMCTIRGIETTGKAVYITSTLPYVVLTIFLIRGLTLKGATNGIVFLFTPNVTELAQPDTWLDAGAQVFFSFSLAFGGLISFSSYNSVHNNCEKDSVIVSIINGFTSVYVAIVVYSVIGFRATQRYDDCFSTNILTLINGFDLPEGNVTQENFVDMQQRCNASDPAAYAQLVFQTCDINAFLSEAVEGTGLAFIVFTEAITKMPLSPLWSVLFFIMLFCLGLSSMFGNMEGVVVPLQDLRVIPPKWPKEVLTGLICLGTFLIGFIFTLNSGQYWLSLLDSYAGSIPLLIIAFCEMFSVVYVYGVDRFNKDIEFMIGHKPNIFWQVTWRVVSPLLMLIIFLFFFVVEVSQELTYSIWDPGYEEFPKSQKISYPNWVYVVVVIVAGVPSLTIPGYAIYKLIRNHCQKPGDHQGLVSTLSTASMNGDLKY
Mode: inhibitor
Cell line: CHO-BC cells
Notes: unit not given
Reference: uninhibited cells
Endpoint: remaining transport activity
FLIPR membrane potential; 0.01 µM: 0.886
L-[14C]leucine uptake; 0.01 µM, 6 min, 37 °C, with: GPNA 3 mM, JPH203 3 µM: 0.839
FLIPR membrane potential; 0.003 µM: 1.05

Mixed results
O=C1CC[C@@H](Nc2ccc(N3CCNCC3)c(F)c2)C(=O)N1 — inhibition (Protein cereblon (CRBN, Homo sapiens, UniProt Q96SW2); binding; 370.37 nM): 40.9% and 42.6%
Cc1ccc(O)c(C)c1-c1cnc2[nH]c(-c3cnc(N4CCC(CN5CCN(c6ccc(N7CCC(=O)NC7=O)cc6F)CC5)CC4)nc3)cc2c1C#N — pCDK1 (Thr14) level (HCC1569; in-cell western, item: CDK1 phospho-Thr14; 1000 nM): 99.9% and 95.5%
Cc1ccc(O)c(C)c1-c1cnc2[nH]c(-c3cnc(N4CCC(CN5CCN(c6ccc(C(=O)NC7CCC(=O)NC7=O)c(F)c6)CC5)CC4)nc3)cc2c1C#N (racemic) — inhibition (Membrane-associated tyrosine- and threonine-specific cdc2-inhibitory kinase (PKMYT1, Homo sapiens, UniProt Q99640); binding, HTRF; 12.35 nM): 84.2% and 82.8%
Cc1ccc(O)c(C)c1-c1cnc2[nH]c(-c3cnc(N4CCC(CN5CCN(c6ccc7c8c(cccc68)C(=O)N7C6CCC(=O)NC6=O)CC5)CC4)nc3)cc2c1C#N (racemic) — pCDK1 (Thr14) level (HCC1569; in-cell western, item: CDK1 phospho-Thr14; 1000 nM): 64% and 54.8%

Excerpt of the above (study 1):
with: ubiquinone 16 µg/mL: 4 µg/mL (≈ 2.64 µM)
with: ubiquinone 64 µg/mL: 8 µg/mL (≈ 5.29 µM)
with: menaquinone 32 µg/mL: > 64 µg/mL
